# Measurements pooled from the literature.
# Each line is one published result; not all experiments were run side by side. “And” joins repeats or separate records; there may be more than shown. Numbers after ± are the reported error.
# Genome polyprotein NS3 helicase domain: Genome polyprotein, NS3 helicase domain (Hepatitis C virus genotype 1b, UniProt Q9WMX2)
# RORC: Nuclear receptor ROR-gamma (RORC, Homo sapiens, UniProt P51449)
# Chain of UniProt P51449 (whole entry, looked up): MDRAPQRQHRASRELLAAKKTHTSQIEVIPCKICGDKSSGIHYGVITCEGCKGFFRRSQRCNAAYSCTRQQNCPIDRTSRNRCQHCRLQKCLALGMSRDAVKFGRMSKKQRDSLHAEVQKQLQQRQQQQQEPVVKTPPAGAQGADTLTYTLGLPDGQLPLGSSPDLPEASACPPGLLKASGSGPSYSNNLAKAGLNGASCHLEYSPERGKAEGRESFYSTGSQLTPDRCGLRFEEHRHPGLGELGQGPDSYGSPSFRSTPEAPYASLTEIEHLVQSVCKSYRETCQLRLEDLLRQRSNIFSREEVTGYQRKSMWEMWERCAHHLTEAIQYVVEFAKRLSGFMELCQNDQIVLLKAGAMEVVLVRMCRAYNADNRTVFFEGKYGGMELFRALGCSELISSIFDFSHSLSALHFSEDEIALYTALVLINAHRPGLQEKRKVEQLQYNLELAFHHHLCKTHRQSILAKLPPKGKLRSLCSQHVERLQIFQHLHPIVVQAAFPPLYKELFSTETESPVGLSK
# WD repeat-containing protein 91 WD40 domain, residues 392–747: WD repeat-containing protein 91, WD40 domain, residues 392–747 (Homo sapiens, UniProt A4D1P6)
# Chain of UniProt A4D1P6 (whole entry, looked up): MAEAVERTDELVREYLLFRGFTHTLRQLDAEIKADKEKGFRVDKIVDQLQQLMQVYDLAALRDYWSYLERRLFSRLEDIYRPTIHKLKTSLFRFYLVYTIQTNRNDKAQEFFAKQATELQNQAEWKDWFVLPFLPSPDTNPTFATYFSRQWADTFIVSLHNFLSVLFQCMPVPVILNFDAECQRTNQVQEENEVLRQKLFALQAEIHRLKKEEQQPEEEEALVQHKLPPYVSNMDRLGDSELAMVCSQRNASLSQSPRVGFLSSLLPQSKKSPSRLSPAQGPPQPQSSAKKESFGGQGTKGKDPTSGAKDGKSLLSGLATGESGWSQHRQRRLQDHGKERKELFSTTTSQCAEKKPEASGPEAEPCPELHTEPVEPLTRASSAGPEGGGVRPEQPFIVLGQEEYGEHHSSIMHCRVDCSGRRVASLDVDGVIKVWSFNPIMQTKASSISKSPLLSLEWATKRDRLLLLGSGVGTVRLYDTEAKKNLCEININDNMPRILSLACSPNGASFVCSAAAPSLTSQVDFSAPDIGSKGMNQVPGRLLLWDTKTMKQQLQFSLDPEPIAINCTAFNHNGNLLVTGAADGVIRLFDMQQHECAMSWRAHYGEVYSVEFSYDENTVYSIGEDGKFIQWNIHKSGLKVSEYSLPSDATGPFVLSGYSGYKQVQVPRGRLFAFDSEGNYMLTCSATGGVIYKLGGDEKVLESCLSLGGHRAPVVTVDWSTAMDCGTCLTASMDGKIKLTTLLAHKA
# ESR1: Estrogen receptor (ESR1, Homo sapiens, UniProt P03372)
# WD repeat-containing protein 91: WD repeat-containing protein 91 (Homo sapiens, UniProt A4D1P6)
# Chain of UniProt O76090 (whole entry, unmodified, looked up): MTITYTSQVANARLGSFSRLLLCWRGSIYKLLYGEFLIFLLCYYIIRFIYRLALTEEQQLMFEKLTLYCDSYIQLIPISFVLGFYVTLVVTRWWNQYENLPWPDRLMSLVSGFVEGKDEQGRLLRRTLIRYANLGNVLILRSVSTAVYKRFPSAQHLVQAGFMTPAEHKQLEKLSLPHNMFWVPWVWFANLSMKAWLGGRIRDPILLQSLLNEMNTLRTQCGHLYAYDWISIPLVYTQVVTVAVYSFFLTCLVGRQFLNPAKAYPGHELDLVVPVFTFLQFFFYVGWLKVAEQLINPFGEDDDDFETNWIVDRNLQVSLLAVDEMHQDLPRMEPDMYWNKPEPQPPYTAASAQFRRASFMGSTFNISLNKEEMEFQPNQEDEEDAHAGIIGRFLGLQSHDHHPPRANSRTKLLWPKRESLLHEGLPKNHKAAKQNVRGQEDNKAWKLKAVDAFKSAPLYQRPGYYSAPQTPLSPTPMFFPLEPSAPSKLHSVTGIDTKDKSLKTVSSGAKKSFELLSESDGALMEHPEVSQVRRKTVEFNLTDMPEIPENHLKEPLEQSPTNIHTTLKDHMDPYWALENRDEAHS
# Chain of UniProt Q16774 (whole entry, unmodified, looked up): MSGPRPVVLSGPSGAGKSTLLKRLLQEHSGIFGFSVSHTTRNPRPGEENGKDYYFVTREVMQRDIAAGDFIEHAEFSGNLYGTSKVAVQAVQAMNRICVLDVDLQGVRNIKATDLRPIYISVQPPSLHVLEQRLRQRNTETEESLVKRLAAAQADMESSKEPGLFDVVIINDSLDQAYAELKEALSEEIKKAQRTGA
Structure (SMILES),target,assay,system,conditions,scale,endpoint,result
COc1ccc2c(c1)CC[C@@H]1[C@@H]2CC[C@]2(C)[C@@H](NCCCCCCN3C(=O)C=CC3=O)CC[C@@H]12,Genome polyprotein NS3 helicase domain,"DNA binding, inhibitor",hepatitis C virus,"100 µM, with: Cy5-dT15 DNA",,inhibition,5%
COc1cc(/C=C/c2ccc(O)cc2)cc(OC)c1,"O-methyltransferase (Sorghum bicolor, UniProt A0A1B6PFV1)",,,"concentration not given, with: SAM+",,ΔG of binding,-7.26 kcal/mol
CCN(CC)CCOc1ccc2c(c1)C(=O)c1cc(OCCN(CC)CC)ccc1-2,"ACHE (Homo sapiens, UniProt P22303)",enzyme activity,,,,Hill slope,1
O=C(c1ccc(F)cc1)C1CCN(CCn2c(=O)[nH]c3ccccc3c2=O)CC1,Genome polyprotein NS3 helicase domain,"DNA binding, inhibitor",hepatitis C virus,"100 µM, with: Cy5-dT15 DNA",,inhibition,2%
CSCC[C@@H]1NC(=O)[C@H](Cc2ccc(O)cc2)NC(=O)[C@H](Cc2ccc(O)cc2)NC(=O)[C@@H]2CCCN2C(=O)CNC(=O)[C@H](C(C)C)NC(=O)[C@H](Cc2c[nH]cn2)NC(=O)[C@@H](NC(=O)[C@H](C)N)CSSC[C@@H](C(=O)N[C@@H](CO)C(=O)NCC(N)=O)NC(=O)[C@H](C)NC(=O)[C@H](CC(C)C)NC1=O,"CA2 (Bos taurus, UniProt P00921)",surface plasmon resonance,,"pH 7.4, 25 °C, 2% DMSO, 0.005% Tween-20, 1:1 model",,dissociation rate constant,0.0003 s⁻¹
O=C(COP(=O)(O)O)[C@@H](O)[C@H](O)[C@H](O)COP(=O)(O)O,"SEC23-interacting protein (Homo sapiens, UniProt Q9Y6Y8)","thermal proteome profiling, measured: SEC23IP",HepG2 cell lysate,"concentration not given, 57 over 37 °C, mean",baseline: compound over control,thermal stability ratio,0.441
Nc1ccc(C(=O)O)cc1,"BEST1, with wild-type BEST1 (Homo sapiens, UniProt O76090, Q293K)","ion current, whole-cell patch clamp",HEK293 co-expressing mutant and wild-type,"concentration not given, voltage 80 mV",,current density,12 pA/pF and 32.9 pA/pF and 18.7 pA/pF and 7.82 pA/pF and 11.7 pA/pF and 22.3 pA/pF
C[C@@H](O)[C@H](N)C(=O)O,"N-alpha-acetyltransferase 80 (NAA80, Homo sapiens, UniProt Q93015)","substrate, DTNB",,"2 mM, 30 min, 37 °C, with: acetyl-CoA 500 µM",,product formation,1.93 µM
Cn1c(=O)c2[nH]cnc2n(C)c1=O,"Glutamate receptor 2 (Homo sapiens, UniProt P42262)","ion current, agonist, SyncroPatch patch clamp",HEK293,3 µM,,activation,2%
O=S(=O)(c1ccccc1Cl)N1CCc2ccc(OCc3c(F)cccc3Cl)cc21,RORC,"binding, SPA",,"10 µM, with: 3H-T0901317",,displacement,75%
N#CC1CCN(C(=O)c2ccc(-c3cccc4cccnc34)cc2)CC1,"WD repeat-containing protein 91 WD40 domain, residues 392–747","binding, SPR single-concentration screen",,45 µM,,SPR response,-12.6 RU and -13.5 RU
Cc1ccc(N(C)C(=O)/C=C/c2ccco2)cc1,"Voltage-dependent N-type calcium channel subunit alpha-1B (Homo sapiens, UniProt Q00975)",potentiator,HEK293T,concentration not given,,potentiation,inactive
Cl.Fc1ccc(CN(C2=NCCN2)c2c(Cl)cccc2Cl)cc1,Genome polyprotein NS3 helicase domain,"DNA binding, inhibitor",hepatitis C virus,"100 µM, with: Cy5-dT15 DNA",,inhibition,1%
O=C1CCc2ccc(OCCCCN3CCN(c4cccc(Cl)c4Cl)CC3)cc2N1,"PRDX3 (Homo sapiens, UniProt P30048)",binding,,20 µM,,SPR response,~20 RU
CC[C@@H]1C(=O)OC[C@@H]1Cc1cncn1C,Genome polyprotein NS3 helicase domain,"DNA binding, inhibitor",hepatitis C virus,"100 µM, with: Cy5-dT15 DNA",,inhibition,1%
CC[C@H](C)[C@H](NC(=O)[C@H](CCSC)NC(=O)[C@H](CCSC)NC(=O)[C@H](C)NC(=O)[C@H](C)NC(=O)[C@H](Cc1ccc(O)cc1)NC(=O)[C@H](C)NC(=O)[C@H](CCCCN)NC(=O)CNC(=O)[C@@H](NC(=O)[C@@H](NC(=O)[C@H](CCSC)NC(=O)[C@H](Cc1c[nH]cn1)NC(=O)CN)[C@@H](C)O)C(C)C)C(=O)N[C@@H](CCSC)C(=O)N[C@@H](CCC(=O)O)C(=O)N[C@@H](Cc1ccc(O)cc1)C(=O)N[C@@H](Cc1ccc(O)cc1)C(=O)N[C@@H](CCCNC(=N)N)C(=O)N[C@@H](CCC(N)=O)C(=O)N[C@@H](CO)C(=O)N[C@@H](CCCCN)C(=O)N[C@@H](C)C(=O)N[C@@H](CCCCN)C(=O)N[C@@H](CCCCN)C(=O)N[C@@H](CC(C)C)C(=O)N[C@@H](CCC(N)=O)C(=O)N[C@@H](C)C(=O)N[C@@H](CCSC)C(=O)N[C@@H](CCCNC(=N)N)C(=O)O,"Calmodulin-1, Ca2+-bound C-lobe (CALM1, Homo sapiens, UniProt P0DP23)","binding, isothermal titration calorimetry",,"pH 7.4, 15 °C, C-lobe, CaV2.1 IQ domain, with: Ca2+",,ΔS,23 ± 0.5 cal/mol/K
O=c1c(O)c(-c2ccc(O)c(O)c2)oc2cc(O)cc(O)c12,ESR1,array formation,PRL-HeLa,,baseline: EC50 ERβ over EC50 ERα,selectivity ratio,5.26
NC/C(=C\F)COc1cccc(Cn2c(=S)[nH]c(=O)c3[nH]cnc32)c1,"Myeloperoxidase (MPO, Homo sapiens, UniProt P05164)","H2O2 consumption, inhibitor, H2O2 electrode",,"0.028 µM, 0.1 s",,H2O2 concentration,-0.803 µM
CCN(CC)C(=S)S,"PTPN12 (Homo sapiens, UniProt Q05209)",enzyme activity,,"concentration not given, with: DiFMUP",,activity,inactive
O=C(NC1CCN(c2ncnc3c2nc(-c2ccccc2Cl)n3-c2ccc(Cl)cc2)CC1)c1ccc(F)cc1F,"CNR1 (Homo sapiens, UniProt P21554)","binding, [3H]CP55940 displacement",,,baseline: Ki CB2 over Ki CB1,selectivity ratio,> 3500
NC(=O)C1=CN([C@@H]2O[C@H](COP(=O)(O)OP(=O)(O)OC[C@H]3O[C@@H](n4cnc5c(N)ncnc54)[C@H](O)[C@@H]3O)[C@@H](O)[C@H]2O)C=CC1,ancestral FSP1,"oxidoreductase activity, substrate",,with: co-substrate 100 µM fixed,,kcat,10.7 ± 0.5 s⁻¹
Nc1nc2c(ncn2[C@@H]2O[C@H](COP(=O)(O)O)[C@@H](O)[C@H]2O)c(=O)[nH]1,"GUK1 (Homo sapiens, UniProt Q16774)",ITC,,"concentration not given, with: 150 mM NaCl",,ΔG of binding,-6.21 kcal/mol and -6.14 kcal/mol and -6.08 kcal/mol
CNC(=O)c1cc2c(cn1)[nH]c1ccccc12,Genome polyprotein NS3 helicase domain,"DNA binding, inhibitor",hepatitis C virus,"100 µM, with: Cy5-dT15 DNA",,inhibition,0%
CC1(C)CC2(C)OC(=O)NC2(C)c2ccccc21 (stereo not drawn),WD repeat-containing protein 91,"binding, affinity selection mass spectrometry",,,baseline: other proteins in batch,log fold enrichment,0.215
N#Cc1cccc2c1CC[C@H]2NC(=O)c1ccc(CNc2cccc3c2CCCC3)cc1,"WD repeat-containing protein 91 WD40 domain, residues 392–747",SPR,,45 µM,,binding,9% and -8%
COc1cc(/C=C/c2cc(/C=C/c3ccc(O)c(OC)c3)n(-c3ccc(Cl)cc3Cl)n2)ccc1O,haemin,"binding, isothermal titration calorimetry",,"pH 7.4, 37 °C",,ΔG,-9.13 ± 0.454 kcal/mol
CC[C@H](C)[C@H](NC(=O)[C@H](CCCCN)NC(=O)CNC(=O)[C@@H](NC(=O)[C@@H](NC(=O)[C@H](CCSC)NC(=O)[C@H](Cc1c[nH]cn1)NC(=O)CN)[C@@H](C)O)C(C)C)C(=O)N[C@@H](Cc1ccc(O)cc1)C(=O)N[C@@H](C)C(=O)N[C@@H](C)C(=O)N[C@@H](CCSC)C(=O)N[C@@H](CCSC)C(=O)N[C@H](C(=O)N[C@@H](CCSC)C(=O)N[C@@H](CCC(=O)O)C(=O)N[C@@H](Cc1ccc(O)cc1)C(=O)N[C@@H](Cc1ccc(O)cc1)C(=O)N[C@@H](CCCNC(=N)N)C(=O)N[C@@H](CCC(N)=O)C(=O)N[C@@H](CO)C(=O)N[C@@H](CCCCN)C(=O)N[C@@H](C)C(=O)N[C@@H](CCCCN)C(=O)N[C@@H](CCCCN)C(=O)N[C@@H](CC(C)C)C(=O)N[C@@H](CCC(N)=O)C(=O)N[C@@H](C)C(=O)N[C@@H](CCSC)C(=O)N[C@@H](CCCNC(=N)N)C(=O)O)[C@@H](C)CC,"Calmodulin-1, Ca2+-bound N-lobe (CALM1, Homo sapiens, UniProt P0DP23)","binding, isothermal titration calorimetry",,"pH 7.4, 15 °C, N-lobe, CaV2.1 IQ domain, with: Ca2+",,ΔS,14.7 ± 1.4 cal/mol/K
Nc1ncnc2c1ncn2[C@@H]1O[C@H](COP(=O)(O)CP(=O)(O)OP(=O)(O)O)[C@@H](O)[C@H]1O,"P2X purinoceptor 1 (P2RX1, Homo sapiens, UniProt P51575, R139A)",saturation binding,HEK293,79 nM,,specific binding,4190 CCPM and 2900 CCPM
CCn1c(=O)[nH]c2cc(C(=O)NC(c3ccc(F)cc3)c3cnn(C)c3)ccc2c1=O (stereo not drawn),WD repeat-containing protein 91,"binding, SPR steady state",,0.9375 µM,,SPR response,8.64 RU
COc1ccc(-c2cncc(C(=O)N[C@@H]3CCc4c(C#N)cccc43)c2)c(C)c1,"WD repeat-containing protein 91 WD40 domain, residues 392–747",SPR,,45 µM,,binding,80% and 78%
O=c1cc(-c2ccc(O)cc2)oc2cc(O[C@@H]3O[C@H](CO)[C@@H](O)[C@H](O)[C@H]3O)cc(O)c12,ESR1,array formation,PRL-HeLa,,baseline: EC50 ERβ over EC50 ERα,selectivity ratio,0.939
O=c1nc(SCc2cc(F)cc(C(F)(F)F)c2)nc(SCc2ccc3sccc3c2)[nH]1,"TOP2A (Homo sapiens, UniProt P11388)",DNA cleavage,,"7.8 µM, replicate 1",,linear DNA,0%
CC(C)(Sc1ccc(CCN(CCCCC2CCCCC2)C(=O)NC2CCCCC2)cc1)C(=O)O,Genome polyprotein NS3 helicase domain,"DNA binding, inhibitor",hepatitis C virus,"100 µM, with: Cy5-dT15 DNA",,inhibition,3%
CCCCCCCC(=O)c1cc(OC)c(OC)c(OC)c1CC(=O)OCC,RORC,"reporter gene, Gal4 hybrid reporter",,10 µM,baseline: vehicle,activation,0.65 fold
CCN1CCCC1CNC(=O)c1cc(S(N)(=O)=O)ccc1OC (stereo not drawn),"DRD3 (Homo sapiens, UniProt P35462)","ERK1/2 phosphorylation, antagonist, AlphaScreen SureFire",,,,maximal inhibition,100 ± 0.1%
O=C(/C=C/c1ccc(O)cc1)c1ccc(O)cc1O,Genome polyprotein NS3 helicase domain,"DNA binding, inhibitor",hepatitis C virus,"100 µM, with: Cy5-dT15 DNA",,inhibition,0%
Cc1ccccc1C1CC(=O)c2c(C)nc(N)nc2C1 (stereo not drawn),WD repeat-containing protein 91,"binding, affinity selection mass spectrometry",,,baseline: other proteins in batch,log fold enrichment,-0.0483
N#CC1CCN(C(=O)c2ccc(C=Cc3ccc4ccccc4n3)cc2)CC1,"WD repeat-containing protein 91 WD40 domain, residues 392–747","binding, SPR single-concentration screen",,45 µM,,SPR response,2.5 RU and 3.5 RU
COc1ccc(CNC(=O)CCl)cc1OC,"14-3-3 protein sigma, with ERα phosphopeptide (SFN, Homo sapiens, UniProt P31947)","binding, fluorescence polarization",,"covalent ligand screen, with: phosphorylated ERalpha peptide",baseline: control,FP signal,88.4%
CC(C)CCC[C@@H](C)[C@H]1CC[C@H]2[C@@H]3CC=C4C[C@@H](O)CC[C@]4(C)[C@H]3CC[C@]12C,"uncharacterized protein (Toxoplasma gondii, UniProt D3XD39)",measured: [3H]compound,"COS-7 cells, transfected","concentration not given, with: human apoA-I",,lipid efflux,6.7%
N#CC1CCN(C(=O)c2ccc(Cn3cc(-c4ccc5c(c4)NCCO5)nn3)cc2)CC1,"WD repeat-containing protein 91 WD40 domain, residues 392–747","binding, SPR single-concentration screen",,45 µM,,SPR response,-9.2 RU and -18 RU
C(/C=C/c1sc2c3ccccc3ccc2[n+]1CCCc1ccccc1)=C1/Sc2c(ccc3ccccc23)N1CCCc1ccccc1.[I-],"PRMT3 (Homo sapiens, UniProt O60678)","inhibitor, filter binding",,with: R4 peptide substrate,,Hill coefficient,1.65

# A few entries again:
Structure (SMILES),target,assay,system,conditions,scale,endpoint,result
NC/C(=C\F)COc1cccc(Cn2c(=S)[nH]c(=O)c3[nH]cnc32)c1,"Myeloperoxidase (MPO, Homo sapiens, UniProt P05164)","H2O2 consumption, inhibitor, H2O2 electrode",,"0.028 µM, 0.1 s",,H2O2 concentration,-0.803 µM
N#CC1CCN(C(=O)c2ccc(-c3cccc4cccnc34)cc2)CC1,"WD repeat-containing protein 91 WD40 domain, residues 392–747","binding, SPR single-concentration screen",,45 µM,,SPR response,-12.6 RU and -13.5 RU
COc1cc(/C=C/c2cc(/C=C/c3ccc(O)c(OC)c3)n(-c3ccc(Cl)cc3Cl)n2)ccc1O,haemin,"binding, isothermal titration calorimetry",,"pH 7.4, 37 °C",,ΔG,-9.13 ± 0.454 kcal/mol
O=C(c1ccc(F)cc1)C1CCN(CCn2c(=O)[nH]c3ccccc3c2=O)CC1,Genome polyprotein NS3 helicase domain,"DNA binding, inhibitor",hepatitis C virus,"100 µM, with: Cy5-dT15 DNA",,inhibition,2%
O=C(/C=C/c1ccc(O)cc1)c1ccc(O)cc1O,Genome polyprotein NS3 helicase domain,"DNA binding, inhibitor",hepatitis C virus,"100 µM, with: Cy5-dT15 DNA",,inhibition,0%
